# Assay results from different studies.
# Compare with care: the assays were run in different laboratories. ± gives the spread as reported.
SMILES,cell line,assay,setting,EC50
C=CC(=O)Nc1cc(-c2nn(C3CCN(CCNC(=O)[C@H](C)CCC45CC6CC(CC(C6)C4)C5)CC3)c3ncnc(N)c23)ccc1Oc1ccccc1,PC9/GR4,"cell growth or viability, ATP luminescence",72 h,900 nM
[Ru+2].c1ccc(-c2ccc3c(n2)c2ncccc2c2nc4cc5ccccc5cc4nc32)nc1.c1ccc(-c2ccc3c(n2)c2ncccc2c2nc4cc5ccccc5cc4nc32)nc1,M2 murine macrophages,"cell viability, MTT","1 h, dark",> 25000 nM
N=C(N)NCCC[C@H](N)C(=O)N1CCC[C@H]1C(=O)N[C@@H](CCCCN)C(=O)N1CCC[C@H]1C(=O)N[C@@H](CCC(N)=O)C(=O)N[C@@H](CCC(N)=O)C(=O)N[C@@H](Cc1ccccc1)C(=O)N[C@@H](Cc1ccccc1)C(=O)NCC(=O)O,LAD2 human mast cells,"degranulation, activator, item: β-hexosaminidase","30 min, 37 °C",43300 nM
Cc1ccc2c(n1)c1nc(C)ccc1c1nc3cc4ccccc4cc3nc21.[Ru+2].c1ccc(-c2cccc(-c3ccccn3)n2)nc1.c1ccncc1,M2 murine macrophages,"cell viability, MTT","1 h, blue light 56 J/cm2",550 ± 100 nM
FC(F)(F)c1ccnc(-c2cc(C(F)(F)F)ccn2)c1.FC(F)(F)c1ccnc(-c2cc(C(F)(F)F)ccn2)c1.[Cl-].[Cl-].[Ru+2].c1csc(-c2ccc(-c3ccc(-c4nc5c6cccnc6c6ncccc6c5[nH]4)s3)s2)c1,SK-MEL-28,"cell viability, resazurin","green light, hypoxia 1% O2",300 to 1000 nM
CCCCCCCCCCCCCCCC(=O)N[C@@H](CCC(=O)NCCCC[C@H](NC(=O)[C@H](CC(=O)O)NC(=O)[C@H](CO)NC(=O)[C@@H](NC(=O)[C@H](Cc1ccccc1)NC(=O)[C@@H](NC(=O)CNC(=O)[C@H](CCC(N)=O)NC(=O)[C@H](CO)NC(=O)[C@@H](N)Cc1c[nH]cn1)[C@@H](C)O)[C@@H](C)O)C(=O)N[C@@H](CO)C(=O)N[C@@H](CCC(=O)O)C(=O)N[C@@H](Cc1ccc(O)cc1)C(=O)N[C@@H](CC(C)C)C(=O)N[C@@H](CC(=O)O)C(=O)N[C@@H](CO)C(=O)N[C@@H](CCC(=O)O)C(=O)N[C@@H](CCCNC(=N)N)C(=O)N[C@@H](C)C(=O)N[C@@H](CCCNC(=N)N)C(=O)N[C@@H](CC(=O)O)C(=O)N[C@@H](Cc1ccccc1)C(=O)N[C@H](C(=O)N[C@@H](C)C(=O)N[C@@H](Cc1c[nH]c2ccccc12)C(=O)N[C@@H](CC(C)C)C(=O)N[C@@H](CCC(=O)O)C(=O)N[C@@H](C)C(=O)NCC(=O)NCC(=O)O)C(C)C)C(=O)O,pooled primary human hepatocytes,"cAMP accumulation, agonist",added: 0.1% BSA,2.45 ± 0.151 nM
CC(=O)OC1CCC(OC(C)=O)O1 (racemic),human T-lymphocyte,"cell growth or viability, MTT",48 h,> 10000 nM
CSCC[C@H](NC(=O)[C@H](C)NC(=O)[C@H](C)NC(=O)[C@H](C)N)C(=O)N[C@@H](CCCCN)C(=O)N[C@@H](CCCNC(=N)N)C(=O)N[C@@H](Cc1c[nH]cn1)C(=O)NCC(=O)N[C@@H](CC(C)C)C(N)=O,2D12.1 T cell hybridoma,"T cell activation, agonist, item: IL-2","24 h, NOD mouse spleen cells",> 10000 nM
FC(F)(F)c1ccnc(-c2cc(C(F)(F)F)ccn2)c1.FC(F)(F)c1ccnc(-c2cc(C(F)(F)F)ccn2)c1.[Cl-].[Cl-].[Ru+2].c1csc(-c2ccc(-c3ccc(-c4ccc(-c5nc6c7cccnc7c7ncccc7c6[nH]5)s4)s3)s2)c1,SK-MEL-28,cell viability,"normoxia, added: green light 523 nm, 100 J/cm2",120 nM
CC(=O)OC[C@H]1O[C@@H]([Se][Se][C@@H]2O[C@H](COC(C)=O)[C@H](OC(C)=O)[C@H](OC(C)=O)[C@H]2OC(C)=O)[C@H](OC(C)=O)[C@@H](OC(C)=O)[C@H]1OC(C)=O,J774 mouse macrophages,viability,24 h,6900 ± 540 nM
